Measurements gathered from unrelated publications.
Every numbered part comes from another study and shows a few of its results, in no order.

Set 1 — target: Sox, HMG box (Pigoraptor chileana); technique: Spec-seq; molecule type: double-stranded DNA, one strand shown; medium: in vitro; concentration: not given; notes: whole probe, mean of replicates; relative to: not given; reading: lower = stronger binding; shared flanks, not repeated: GAGTCGTCTCGTCAGCAC … CCGTAGAGCACTCAGGTC
Target sequence (chain): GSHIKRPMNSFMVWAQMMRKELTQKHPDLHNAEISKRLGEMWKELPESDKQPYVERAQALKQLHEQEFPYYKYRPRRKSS
`ACTTGTT` — result for “relative binding energy”: -2.56 ln ratio.
`CAGCGTT` — result for “relative binding energy”: 1.19 ln ratio.
For `TCCCGTT`, “relative binding energy” read 0.426 ln ratio.
`TGCAGTT`: “relative binding energy” 0.223 ln ratio.
`TTAAGTT`: “relative binding energy” 0.414 ln ratio.
For `CATGAAG`, “relative binding energy” read 0.208 ln ratio.

Set 2 — technique: protein-binding microarray; molecule type: double-stranded DNA, one strand shown; medium: in vitro; concentration: not given; reading: higher = stronger binding
Target: Max-binding protein MNT, bHLH-zipper, MAX partner unstated (MNT, Homo sapiens, UniProt Q99583, residues 220-300)
Notes: k-mer, scored over probes, only values ≥0.25
Construct (chain): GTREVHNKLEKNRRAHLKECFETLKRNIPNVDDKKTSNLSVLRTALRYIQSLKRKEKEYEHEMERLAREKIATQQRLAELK
`ACGTGGTC` gave an E-score of 0.441.
The E-score of `CGTGGCCA` is reported as 0.37.
For `ACATGGAC`, the E-score was 0.3.
The E-score of `GAGCGTGC` is reported as 0.366.
The E-score of `CCCCTCGC` is reported as 0.252.
`GATCATGC` gave an E-score of 0.285.
With `ACGTTTGC` the E-score was 0.299.
For `CGTGCCCC`, the E-score was 0.371.

Set 3 — technique: universal PBM; molecule type: double-stranded DNA, one strand shown; medium: in vitro; concentration: not given; reading: higher = stronger binding
Target: Sal-like protein 4, full length isoform B (SALL4, Homo sapiens, UniProt Q9UJQ4-2, residues 1-616)
Notes: 8-mer, flanks averaged, mean of replicates
Construct (chain): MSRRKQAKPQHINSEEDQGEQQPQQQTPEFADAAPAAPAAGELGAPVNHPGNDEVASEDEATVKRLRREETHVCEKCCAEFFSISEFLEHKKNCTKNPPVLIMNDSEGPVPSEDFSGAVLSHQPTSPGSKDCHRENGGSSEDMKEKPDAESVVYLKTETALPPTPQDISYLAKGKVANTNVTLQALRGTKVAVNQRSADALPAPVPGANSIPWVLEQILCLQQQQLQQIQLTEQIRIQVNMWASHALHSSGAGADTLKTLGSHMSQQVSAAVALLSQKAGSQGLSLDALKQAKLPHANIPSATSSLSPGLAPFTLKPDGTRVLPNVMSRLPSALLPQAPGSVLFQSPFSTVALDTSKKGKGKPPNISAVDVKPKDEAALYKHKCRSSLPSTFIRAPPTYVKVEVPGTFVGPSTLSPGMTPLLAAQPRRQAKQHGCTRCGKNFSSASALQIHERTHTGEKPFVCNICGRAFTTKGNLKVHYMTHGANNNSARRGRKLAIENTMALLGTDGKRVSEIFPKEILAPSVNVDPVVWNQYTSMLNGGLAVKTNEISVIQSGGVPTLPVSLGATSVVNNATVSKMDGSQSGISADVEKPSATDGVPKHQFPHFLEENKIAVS
For `AATCCGTC`, the E-score was -0.0644.
The E-score of `TAACCTCA` is reported as 0.158.
The E-score of `AAGGAAAG` is reported as 0.0753.
For `AATCAATT`, the E-score was 0.253.
`ACGGCAAC` has an E-score of -0.0825.

Mixed results
`PhoQ, residues 284 288 289 292 302 303 WSHMKI` has a fold induction of 13.3 (PhoP, residues 12 14 15 18 19 AGCRL (Escherichia coli, UniProt P23836); Sort-seq, item: YFP reporter; E. coli; PhoQ-PhoP variant library, added: 10 µM Mg2+; relative to: high Mg2+ state, higher = stronger signaling).

Excerpt of the above (set 2):
For `ACATGGAC`, the E-score was 0.3.
The E-score of `GAGCGTGC` is reported as 0.366.
The E-score of `CCCCTCGC` is reported as 0.252.
